Measurements gathered from unrelated publications.
Protocols differ between the studies behind these lines.

Cn1cncc1-c1c(F)cncc1NC(=O)c1c(N)nn2cc(F)cnc12
patients grade ≥3 Lymphocyte count decrease (human patients; oral, 150 mg twice daily, 4 days on 3 days off): 25%

C=CC(=O)Nc1cc(Nc2nccc(Nc3cc(Cl)c(F)cc3C(C)(C)O)n2)c(OC)cc1N1CC[C@@H](N(C)C)C1
patients with adverse event Diarrhoea (human; oral, dose not given, phase I clinical): 56.9%

Cn1nc(NS(C)(=O)=O)c2c(Cl)ccc(-n3c([C@H](Cc4cc(F)cc(F)c4)NC(=O)Cn4nc(C(F)F)c5c4C(F)(F)[C@@H]4C[C@H]54)nc4nc(OCCC(F)(F)F)ccc4c3=O)c21
patients with laboratory abnormality (refers to: total cholesterol grade 1 increase; human; 300 mg once daily, powder in bottle): 38%

Cc1cn([C@H]2O[C@@H](CO[P@@](=O)(N[C@@H](C)C(=O)OC(C)C)Oc3ccccc3)[C@H](O)[C@H]2F)c(=O)[nH]c1=O
patients with TEAE (refers to: Flu; human; 50 mg): 17%

C[C@]1(O)C[C@@](N)(c2ccc(-c3nc4n(c3-c3ccccc3)COc3ccncc3-4)cc2)C1
patients with decreased appetite TEAE (human, advanced or metastatic solid tumours; dose not given, all patients): 29.4%

N[C@@H]1c2ccccc2OC12CCN(c1cnc3c(N4CCCc5ncccc54)n[nH]c3n1)CC2
patients with serious adverse event (refers to: pneumonia; human advanced or metastatic solid tumours; oral, dose not given, phase Ia): 3.6%

Cc1cnc(-c2ccccc2C(C)C)nc1NCc1ccc(-n2ccnn2)cc1
maximum inhibition (human coronavirus OC43; virus-induced cell killing; MRC-5; screen): 3.69%

CN(C)C(=O)c1cc2cnc(Nc3ccc(N4CCNCC4)cn3)nc2n1C1CCCC1
patients with adverse event (refers to: Hepatobiliary toxicity, AESI; human, HR+/HER2− advanced breast cancer; oral, dose not given, grade 3, CTCAE v4.03): 11.3%

COc1ncnn2ccc(-c3cnc4nc(C)n(Cc5nnc([C@@H](C)F)o5)c4c3)c12
patients with tumour lysis syndrome (human; oral, dose not given, grade 5): 0%

O=C1Nc2cc3[nH]nc(-c4ccncc4)c3cc2CN1Cc1ccccc1
patients with nausea (CTCAE v4.03; human, relapsed or refractory advanced solid tumours; intravenous, 0.45 mg/kg, pooled schedules): 0%

C[C@@H]1OC(=O)NN=C1c1ccc(-c2ccc(F)cc2)c(C(F)(F)F)c1
patients with TEAE (phase I trial, refers to: non-cardiac chest pain; human patients; 5 mg load, 0.25 mg daily, worst grade 1): 0%

CN1CCN(c2nc(C3=C(c4c[nH]c5ccccc45)C(=O)NC3=O)c3ccccc3n2)CC1
maximum inhibition (human coronavirus OC43; virus-induced cell killing; MRC-5; screen): 21.4%

Some of these lines once more:
Cc1cn([C@H]2O[C@@H](CO[P@@](=O)(N[C@@H](C)C(=O)OC(C)C)Oc3ccccc3)[C@H](O)[C@H]2F)c(=O)[nH]c1=O
patients with TEAE (refers to: Flu; human; 50 mg): 17%

CN1CCN(c2nc(C3=C(c4c[nH]c5ccccc45)C(=O)NC3=O)c3ccccc3n2)CC1
maximum inhibition (human coronavirus OC43; virus-induced cell killing; MRC-5; screen): 21.4%
